Measurements pooled from the literature.
A part holds a random share of what one study measured.

Set 1
Target: Histone acetyltransferase KAT6A, both winged helices, GST fusion (KAT6A, Homo sapiens, UniProt Q92794, residues 1-181)
Method: protein binding microarray
Form: double-stranded DNA, one strand shown
Matrix: in vitro
Concentration: not given
Setting: 8-mer, flanks averaged, mean of 2 arrays, mostly near background
Reference: not given
Direction: higher = stronger binding
Endpoint: E-score
Construct (chain): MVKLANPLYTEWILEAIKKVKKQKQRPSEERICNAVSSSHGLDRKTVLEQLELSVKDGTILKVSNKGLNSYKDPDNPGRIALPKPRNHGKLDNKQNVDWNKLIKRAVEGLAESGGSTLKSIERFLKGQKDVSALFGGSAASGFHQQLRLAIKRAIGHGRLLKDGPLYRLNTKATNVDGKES
Strand = CGTAAGCC; result = 0.136
Strand = AAATTAAC; result = -0.0963
Strand = TCTAGGAA; result = -0.229
Strand = AAGCATGC; result = -0.0617
Strand = CAACACAA; result = -0.21
Strand = CCCTAGAA; result = -0.0256
Strand = AGGTACAG; result = -0.21
Strand = CCGTCACC; result = 0.165
Strand = CTAGGACC; result = -0.0801
Strand = CCACGCCC; result = 0.0212
Strand = CGTGGTCC; result = 0.0472
Strand = AGATCAAA; result = -0.0856
Strand = GACACTGC; result = -0.106
Strand = ACACATCC; result = -0.0418
Strand = CAATTTGA; result = -0.0705
Strand = GACAATGA; result = -0.163
Strand = GTCCTGAA; result = -0.18
Strand = CGTGGCCC; result = 0.043
Strand = AGCTGTGG; result = -0.19
Strand = ACTCTCCA; result = -0.266
Strand = AATAAGCA; result = -0.148
Strand = CATAATAG; result = 0.0527
Strand = CCTAGACC; result = -0.0749
Strand = AACGCCAT; result = 0.0285
Strand = AGATAACT; result = -0.108

Set 2
Target: Phosphate system positive regulatory protein PHO4, full length, GST-tagged (PHO4, Saccharomyces cerevisiae, UniProt P07270, residues 1-312)
Method: competition protein-binding microarray
Form: double-stranded DNA, one strand shown
Matrix: in vitro
Concentration: 2 µM
Setting: whole 60-bp probe, lowest competitor level
Together with: Cbf1 competitor, 0.05 µM
Direction: higher = stronger binding
Endpoint: fluorescence intensity
Constant ends, left off below: … GTCTTGATTCGCTTGACGCTGCTG
Residues (chain): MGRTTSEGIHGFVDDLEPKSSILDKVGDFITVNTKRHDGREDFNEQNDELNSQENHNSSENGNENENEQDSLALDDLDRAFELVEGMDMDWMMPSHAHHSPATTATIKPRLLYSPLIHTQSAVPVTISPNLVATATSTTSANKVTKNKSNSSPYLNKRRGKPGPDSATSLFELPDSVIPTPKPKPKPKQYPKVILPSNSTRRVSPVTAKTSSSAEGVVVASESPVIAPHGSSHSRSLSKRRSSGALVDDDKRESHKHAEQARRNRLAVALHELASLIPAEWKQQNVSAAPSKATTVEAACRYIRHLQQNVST
Strand = CTTTCCCGATCTTGTCACTTGACTTTAGCACATTTG; result = 3760 a.u.
Strand = ATAACGTTGCTTTTGCACGTGTAGTTCGCTGCTTAG; result = 14100 a.u.
Strand = ACTGGCTCTATTTTGCACGCAACTTGTGCAGCTTTA; result = 6310 a.u.
Strand = CTTCTGTAAATTTGTGTGGTGGGTGGACGCGCCCCG; result = 5120 a.u.
Strand = AATCCAATATTGAAAAACGTGAGTACGCAGAGGAGA; result = 11600 a.u.
Strand = AAAGCGGTAATTTGCTGCGTGGGTGCAGATATCTAT; result = 8270 a.u.
Strand = CTAACGAAGGTTTGAGGGGTGGGTGACAAGCCAAGT; result = 4020 a.u.
Strand = ACATTGGTCTGAAAACACGTGTAGTACTTTCTCCTT; result = 18600 a.u.
Strand = AGGGCAGCGCGCGACCGCGTGTCCTTTCACAGCGCA; result = 9440 a.u.
Strand = AAATTACTAAGTTGATCAGTGGGTGACGCCGTATGA; result = 3550 a.u.
Strand = CATACCCAACCTTGTGGAGTGGGTGAAGATATTTGT; result = 5990 a.u.
Strand = CTTCTGTAAATTTGCAGCGTGGGTGGACGCGCCCCG; result = 8080 a.u.
Strand = TGCGCAACAACTTGGCACGTGGGTGTATGTCTAGAA; result = 17000 a.u.
Strand = GGTAAGAAGGTCGCTAGCATGACGCCAGCTCCAAAA; result = 4810 a.u.
Strand = CAACAGTCAAAGGACCTCATGACAGATGGTACTTCG; result = 4730 a.u.
Strand = GTCAACAAAGACCCCATCATGACAAAAGCTCAGAAG; result = 4190 a.u.

Set 3
Target: Sal-like protein 4, full length isoform A (SALL4, Homo sapiens, UniProt Q9UJQ4, residues 1-1053)
Sequence of UniProt Q9UJQ4 (whole entry, looked up): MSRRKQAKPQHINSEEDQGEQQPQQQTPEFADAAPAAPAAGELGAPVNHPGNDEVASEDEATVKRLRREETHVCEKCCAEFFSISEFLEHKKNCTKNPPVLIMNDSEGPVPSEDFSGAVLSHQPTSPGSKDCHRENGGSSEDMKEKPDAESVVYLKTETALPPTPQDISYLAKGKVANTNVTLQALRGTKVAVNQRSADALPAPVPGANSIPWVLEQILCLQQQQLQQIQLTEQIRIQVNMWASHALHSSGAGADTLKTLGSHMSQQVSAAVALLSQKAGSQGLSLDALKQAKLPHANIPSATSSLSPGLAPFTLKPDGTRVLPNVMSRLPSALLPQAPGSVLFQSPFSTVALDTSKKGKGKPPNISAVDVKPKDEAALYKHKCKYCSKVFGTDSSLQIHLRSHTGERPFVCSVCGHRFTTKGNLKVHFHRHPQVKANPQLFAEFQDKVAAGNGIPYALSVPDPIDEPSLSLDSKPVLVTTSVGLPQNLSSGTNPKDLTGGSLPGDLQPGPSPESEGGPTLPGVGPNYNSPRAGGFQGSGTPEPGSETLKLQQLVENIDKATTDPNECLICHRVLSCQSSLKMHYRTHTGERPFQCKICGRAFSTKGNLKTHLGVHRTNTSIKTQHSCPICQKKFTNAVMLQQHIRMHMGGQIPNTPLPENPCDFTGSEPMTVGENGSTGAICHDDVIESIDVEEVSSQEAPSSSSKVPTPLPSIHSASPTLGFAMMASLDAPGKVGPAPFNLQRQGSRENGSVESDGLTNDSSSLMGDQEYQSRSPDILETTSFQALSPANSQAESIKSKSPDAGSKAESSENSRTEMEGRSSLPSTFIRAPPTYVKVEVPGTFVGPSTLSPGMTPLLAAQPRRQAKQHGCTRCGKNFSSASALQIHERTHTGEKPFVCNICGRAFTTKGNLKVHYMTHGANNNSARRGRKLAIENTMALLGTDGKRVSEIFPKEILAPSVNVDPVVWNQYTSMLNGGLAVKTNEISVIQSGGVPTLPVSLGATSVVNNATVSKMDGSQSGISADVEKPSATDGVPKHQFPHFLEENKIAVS
Method: universal PBM
Form: double-stranded DNA, one strand shown
Matrix: in vitro
Concentration: 600 nM
Setting: 8-mer, flanks averaged, mean of replicates
Direction: higher = stronger binding
Endpoint: E-score
Strand = ACGGAAGA; result = -0.0512
Strand = CGACCACC; result = -0.23
Strand = ATTTTAGG; result = 0.231
Strand = GCAGTCCC; result = -0.3
Strand = ATTCGAAT; result = 0.219
Strand = CTCTTAAG; result = 0.0617
Strand = CCATTAGC; result = -0.0253
Strand = GATGTCAA; result = 0.1
Strand = AGCGAATC; result = 0.0364
Strand = ATTGATTG; result = 0.257
Strand = AAGGGATG; result = -0.0583
Strand = CTTGGGTC; result = -0.173
Strand = CTCAGGCA; result = -0.0763
Strand = CTCGGTCC; result = -0.321
Strand = CTTGTGAC; result = -0.0131
Strand = ACGGCTCG; result = -0.235
Strand = CCCTTAAA; result = 0.119
Strand = CCTCGTAC; result = 0.0243
Strand = CGACCGAC; result = -0.301
Strand = AGCAGGCG; result = -0.242
Strand = ACCGTGAA; result = -0.155
Strand = CGAGTATC; result = -0.0874
Strand = CTACGAGC; result = -0.194
Strand = CAAGTATC; result = 0.03
Strand = ACGGTGGG; result = -0.177

Set 4
Target: Prothrombin, mature alpha-thrombin (F2, Homo sapiens, UniProt P00734)
Method: aptamer microarray, sandwich
Form: DNA with 2'F-ANA
Matrix: in vitro
Concentration: 200 nM
Setting: whole 15-mer aptamer, many near background
Together with: Cy3 exosite-II aptamer, 400 nM
Direction: higher = stronger binding
Endpoint: mean fluorescence intensity
Strand: GGTTGGTGTGGTTGG
Modification = 2'F-ANA at 1 2 4 5 10 13 14 15; result = 48.3 a.u.
Modification = 2'F-ANA at 1 2 3 6 9 10 11 15; result = 70.4 a.u.
Modification = 2'F-ANA at 3 4 5 6 7 8 11 15; result = 115 a.u.
Modification = 2'F-ANA at 3 4 6 10 11 12 14; result = 174 a.u.
Modification = 2'F-ANA at 2 7 9 15; result = 446 a.u.
Modification = 2'F-ANA at 1 2 4 5 8 9 11 13 15; result = 49.2 a.u.
Modification = 2'F-ANA at 2 4 6 7 10 13 14 15; result = 57.4 a.u.
Modification = 2'F-ANA at 2 3 4 6 7 8 10 11 12 13 14 15; result = 135 a.u.
Modification = 2'F-ANA at 2 5 7 9 11 12 13 14 15; result = 47 a.u.
Modification = 2'F-ANA at 3 4 5 6 8 9 10 11 13 14 15; result = 85.7 a.u.
Modification = 2'F-ANA at 1 4 5 8 12 14; result = 76.7 a.u.
Modification = 2'F-ANA at 2 3 4 5 8 10 12 14 15; result = 46.5 a.u.
Modification = 2'F-ANA at 1 2 3 5 6 7 10 11 13 14 15; result = 70.4 a.u.
Modification = 2'F-ANA at 1 2 3 4 5 6 7 9 10 13 15; result = 65.7 a.u.
Modification = 2'F-ANA at 3 4 8 11 12 13 14 15; result = 392 a.u.
Modification = 2'F-ANA at 3 5 6 8 9 10 11 12; result = 103 a.u.
Modification = 2'F-ANA at 1 2 4 6 7 8 9 10 11 12 14 15; result = 53.3 a.u.
Modification = 2'F-ANA at 1 2 3 11 12 15; result = 427 a.u.
Modification = 2'F-ANA at 3 4 5 6 8 11 12 13 15; result = 115 a.u.
Modification = 2'F-ANA at 1 3 4 5 6 10 11 12 14 15; result = 47.6 a.u.
Modification = 2'F-ANA at 4 6 8 10 14 15; result = 65.3 a.u.
Modification = 2'F-ANA at 1 4 8 9 10 13 15; result = 49 a.u.
Modification = 2'F-ANA at 3 4 5 7 8 11 13 15; result = 69.8 a.u.
Modification = 2'F-ANA at 2 4 5 10 11; result = 47.5 a.u.
Modification = 2'F-ANA at 2 4 5 9 14; result = 42.4 a.u.

Set 5
Target: TAR DNA-binding protein 43, full length, His tag (TARDBP, Homo sapiens, UniProt Q13148, residues 1-414)
Method: RNA Bind-n-Seq
Form: RNA
Matrix: in vitro
Concentration: 20 nM
Setting: 6-mer, flanks averaged, single round
Together with: 150 mM KCl
Reference: input library
Direction: higher = stronger binding
Endpoint: 6-mer enrichment (R)
Strand = AGAACG; result = 0.984
Strand = UUUCAC; result = 0.562
Strand = UUCCCG; result = 0.597
Strand = AAGAGA; result = 0.919
Strand = GUUUAA; result = 0.661
Strand = GUGGCU; result = 1.37
Strand = UACGGU; result = 0.772
Strand = ACAGUA; result = 0.662
Strand = UAGAUC; result = 0.592
Strand = AGUCUA; result = 0.581
Strand = UCGGAG; result = 1.34
Strand = UGCAAG; result = 0.991
Strand = GACUAC; result = 0.672
Strand = AUCACG; result = 0.666
Strand = UAGGAG; result = 1.52
Strand = AAAACU; result = 0.628
Strand = AAGCCA; result = 0.668
Strand = AAUCCU; result = 0.559
Strand = GCUUGG; result = 1.51
Strand = GAAGAC; result = 0.852
Strand = GCAAUC; result = 0.655
Strand = GAGACU; result = 0.847
Strand = CACUUU; result = 0.621
Strand = UUCCGC; result = 0.593
Strand = AGUCGU; result = 0.746

Set 6
Target: Interferon regulatory factor 7, full length, phosphomimetic (IRF7, Homo sapiens, UniProt Q92985, residues 1-503, S471D/S472D/S475D/S476D/S477D/S483D/S484D/S487D)
Method: protein-binding microarray
Form: double-stranded DNA, one strand shown
Matrix: in vitro
Concentration: 2200 nM top
Setting: 60-bp whole probe
Together with: salmon DNA 0.4 mg/ml
Reference: random background probes
Direction: higher = stronger binding
Endpoint: fitted relative affinity
Constant ends, left off below: GCCTAGCAC … GTCTTGATTCGCTTGACGCTGCTG
Residues (chain): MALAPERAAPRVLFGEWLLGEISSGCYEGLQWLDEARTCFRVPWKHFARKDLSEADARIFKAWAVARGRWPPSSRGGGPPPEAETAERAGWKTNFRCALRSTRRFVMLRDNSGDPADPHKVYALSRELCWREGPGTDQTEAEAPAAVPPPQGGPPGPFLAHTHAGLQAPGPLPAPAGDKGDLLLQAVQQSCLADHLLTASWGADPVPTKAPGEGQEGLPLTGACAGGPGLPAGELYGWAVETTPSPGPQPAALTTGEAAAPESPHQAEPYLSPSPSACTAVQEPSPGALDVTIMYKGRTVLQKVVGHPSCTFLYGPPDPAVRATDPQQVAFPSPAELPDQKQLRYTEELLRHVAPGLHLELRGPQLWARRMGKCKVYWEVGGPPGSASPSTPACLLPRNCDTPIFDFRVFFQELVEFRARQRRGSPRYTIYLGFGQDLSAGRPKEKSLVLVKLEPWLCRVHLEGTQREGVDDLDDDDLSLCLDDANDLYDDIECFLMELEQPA
Strand = GGCGGTATCGGGTATCGGGACGTGCTA; result = -0.852 z-score
Strand = TCATCATTCCAATTCTTACTGTGCTAG; result = 1.85 z-score
Strand = GACGATATCGGGTTTCGAAACGTGCTA; result = 1.96 z-score
Strand = TCACTTCTCCATTTTTCACTGTGCTAG; result = 3.2 z-score
Strand = GTAGGTTTCGGTTCCGGTTAGTGCTAG; result = 11.6 z-score
Strand = GACGGTATCCTTTTCCGGACGTGCTAG; result = 1.17 z-score
Strand = TTAGAACTGGGGTTTCGATTGGTGCTA; result = 3.79 z-score
Strand = TTAGGACTGCTTATCCTTTCGTGCTAG; result = 0.884 z-score
Strand = TTAGGACTGGGTTACGGTTAGTGCTAG; result = -0.0463 z-score
Strand = ATAGATCTCAGTCTCGATTAGTGCTAG; result = 0.622 z-score
Strand = GACGATTTCAGACTGGAGACGTGCTAG; result = 0.339 z-score
Strand = TGCTTTCTTTAACTCATTTTGTGCTAG; result = 1.82 z-score
Strand = TCAGTTACCCCTCATCAAACTGTGCTA; result = 1.54 z-score
Strand = TTAGGTTTCCTTTCCCGTTAGTGCTAG; result = 4.14 z-score
Strand = TTAGATTTCAGTTTCGATCAGTGCTAG; result = 5.31 z-score
Strand = TTAGGTTTCGACTATCCGTTAGTGCTA; result = 3.58 z-score

Repeated from above (set 1):
Strand = CCCTAGAA; result = -0.0256
Strand = AACGCCAT; result = 0.0285
Strand = CAATTTGA; result = -0.0705
Strand = CCTAGACC; result = -0.0749
Strand = CTAGGACC; result = -0.0801
Strand = AATAAGCA; result = -0.148
Strand = CGTGGCCC; result = 0.043
Strand = AAATTAAC; result = -0.0963
Strand = ACTCTCCA; result = -0.266
Strand = CATAATAG; result = 0.0527
Strand = AGATAACT; result = -0.108
Strand = AGGTACAG; result = -0.21
Strand = AGATCAAA; result = -0.0856
Strand = TCTAGGAA; result = -0.229
